Experimental data gathered from unrelated publications.
Parts stem from different laboratories: compare values within a part only. Positions count from the first letter of the parent shown.

Series 1 — target: CEP164, C-terminal peptide (human); technique: DHFR complementation, deep sequencing; matrix: yeast; relative to: wild type; reading: higher = weaker binding
Notes: single substitutions, model-inferred values
Starting sequence: PDZK1, PDZ domain 2 (human); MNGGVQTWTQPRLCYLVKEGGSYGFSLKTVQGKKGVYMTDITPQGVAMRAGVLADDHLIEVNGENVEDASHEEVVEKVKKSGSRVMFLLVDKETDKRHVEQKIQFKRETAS; partner HNRVKVYRF
`Q31I` — result for “binding free energy change”: -1.46 kJ/mol.
`P11L` — result for “binding free energy change”: 2.14 kJ/mol.
`M1W`: “binding free energy change” -0.617 kJ/mol.
Under “binding free energy change”, `T39A` is recorded as 0.529 kJ/mol.
Under “binding free energy change”, `C14G` is recorded as 5.54 kJ/mol.
Under “binding free energy change”, `P11K` is recorded as 1.12 kJ/mol.
`Q44N` — result for “binding free energy change”: -0.262 kJ/mol.
`V30G` — result for “binding free energy change”: 2.87 kJ/mol.
`K79L` — result for “binding free energy change”: -1.6 kJ/mol.
`K92G`: “binding free energy change” -0.166 kJ/mol.
`E19F`: “binding free energy change” 1.99 kJ/mol.
`M1K` — result for “binding free energy change”: -0.694 kJ/mol.
Under “binding free energy change”, `V61Y` is recorded as 4.36 kJ/mol.
Under “binding free energy change”, `T109S` is recorded as -0.566 kJ/mol.
`V52A`: “binding free energy change” 2.41 kJ/mol.
Under “binding free energy change”, `H98T` is recorded as -0.178 kJ/mol.
For `L13C`, “binding free energy change” read 0.131 kJ/mol.

Series 2 — target: CCNB2, cyclin fold, Cln2 fusion (human); technique: yeast growth competition, sequencing; matrix: yeast; notes: weak parent motif; relative to: not given; reading: higher = stronger binding
Starting sequence: ORC1 docking peptide (human); PRARKRLELGNLG; partner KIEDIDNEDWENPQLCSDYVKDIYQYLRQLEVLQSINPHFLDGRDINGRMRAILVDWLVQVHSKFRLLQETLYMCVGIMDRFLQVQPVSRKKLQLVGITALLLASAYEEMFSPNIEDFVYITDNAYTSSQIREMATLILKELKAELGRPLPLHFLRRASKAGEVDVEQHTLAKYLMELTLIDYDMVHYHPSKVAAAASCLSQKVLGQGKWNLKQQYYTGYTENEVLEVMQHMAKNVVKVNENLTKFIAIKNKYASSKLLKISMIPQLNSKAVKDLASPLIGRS
Under “normalised enrichment score”, `K5P` is recorded as 0.377.
Under “normalised enrichment score”, `L7G` is recorded as -0.0601.
`K5G` — result for “normalised enrichment score”: 0.4.
`K5A L7A`: “normalised enrichment score” 0.334.
Under “normalised enrichment score”, `R6S` is recorded as 0.344.
Under “normalised enrichment score”, `E8T` is recorded as 0.425.
`P1D`: “normalised enrichment score” 0.728.
For `L12T`, “normalised enrichment score” read 0.654.
For `G13C`, “normalised enrichment score” read 0.662.
`P1V`: “normalised enrichment score” 0.128.
`E8S`: “normalised enrichment score” 0.0775.
Under “normalised enrichment score”, `A3G` is recorded as -0.17.
For `L9C`, “normalised enrichment score” read 0.919.
Under “normalised enrichment score”, `G10R` is recorded as 0.56.
`E8N` — result for “normalised enrichment score”: 0.909.
For `L7N`, “normalised enrichment score” read -0.0104.
`R2M`: “normalised enrichment score” 0.619.
Under “normalised enrichment score”, `R6N` is recorded as 0.361.
`L7P` — result for “normalised enrichment score”: -0.241.
Under “normalised enrichment score”, `N11F` is recorded as 0.7.
Under “normalised enrichment score”, `R2T` is recorded as 0.64.
`L12M`: “normalised enrichment score” 0.645.
Under “normalised enrichment score”, `A3W` is recorded as 0.301.
Under “normalised enrichment score”, `N11M` is recorded as 1.08.
`L9S`: “normalised enrichment score” 1.08.

Series 3 — technique: DHFR PCA, deep sequencing; matrix: yeast; together with: (+)-ABA 0.032 µM; relative to: wild-type fitted maximum; reading: higher = stronger binding
Target: ABI1, truncated, D143A, DHFR fusion (Arabidopsis thaliana)
Notes: methotrexate growth selection, single substitutions
Starting sequence: PYL1, truncated, DHFR fusion (Arabidopsis thaliana); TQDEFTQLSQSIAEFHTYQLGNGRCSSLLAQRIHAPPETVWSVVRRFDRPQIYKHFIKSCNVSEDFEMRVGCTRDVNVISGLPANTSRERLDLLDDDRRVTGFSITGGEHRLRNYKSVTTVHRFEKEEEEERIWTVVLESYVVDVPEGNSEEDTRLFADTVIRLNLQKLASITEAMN; partner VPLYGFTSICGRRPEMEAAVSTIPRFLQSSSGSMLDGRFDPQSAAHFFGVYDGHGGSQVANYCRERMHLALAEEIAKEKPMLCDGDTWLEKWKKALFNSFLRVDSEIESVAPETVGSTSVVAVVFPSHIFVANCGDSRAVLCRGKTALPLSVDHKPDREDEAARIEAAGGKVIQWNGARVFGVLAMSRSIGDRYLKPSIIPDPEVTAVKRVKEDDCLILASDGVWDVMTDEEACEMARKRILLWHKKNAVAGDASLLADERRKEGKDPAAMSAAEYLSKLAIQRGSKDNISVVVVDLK
`T173D` — result for “relative binding score”: -4.71%.
`V76S` — result for “relative binding score”: -1.34%.
Under “relative binding score”, `R123E` is recorded as 37.6%.
`N149D` — result for “relative binding score”: 11.9%.
`A170M`: “relative binding score” -2.89%.
`F56I` — result for “relative binding score”: -0.595%.
For `R24H`, “relative binding score” read 7.29%.
For `E128F`, “relative binding score” read 13.1%.
`S171V` — result for “relative binding score”: 12.3%.
`C60E`: “relative binding score” -1.14%.
Under “relative binding score”, `F47L` is recorded as -2.92%.
`H110P`: “relative binding score” 71.6%.
For `T39P`, “relative binding score” read 8.24%.
Under “relative binding score”, `D96M` is recorded as -0.2%.
Under “relative binding score”, `R163I` is recorded as -13.9%.
Under “relative binding score”, `M68A` is recorded as -3.4%.

Series 4 — technique: aptamer microarray, sandwich; form: DNA with 2'F-ANA; matrix: in vitro; concentration: 200 nM; together with: Cy3 exosite-II aptamer, 400 nM; reading: higher = stronger binding; sequence: GGTTGGTGTGGTTGG
Target: Prothrombin, mature alpha-thrombin (F2, Homo sapiens, UniProt P00734)
Notes: whole 15-mer aptamer, many near background
Under “mean fluorescence intensity”, `2'F-ANA at 3 5 6 9 13 15` is recorded as 70.4 a.u.
`2'F-ANA at 2 5 6 7 8 12 14` — result for “mean fluorescence intensity”: 51.7 a.u.
For `2'F-ANA at 2 3 6 12 14`, “mean fluorescence intensity” read 421 a.u.
`2'F-ANA at 1 2 6 11 12` — result for “mean fluorescence intensity”: 255 a.u.
`2'F-ANA at 5 7 8 15` — result for “mean fluorescence intensity”: 85.7 a.u.
`2'F-ANA at 3 4 6 7 8 12 14 15`: “mean fluorescence intensity” 333 a.u.
`2'F-ANA at 4 5 6 9 11 12 13`: “mean fluorescence intensity” 94.5 a.u.
For `2'F-ANA at 2 6 7 8 9 11 13 15`, “mean fluorescence intensity” read 280 a.u.
For `2'F-ANA at 1 3 4 6 8 12 13 14 15`, “mean fluorescence intensity” read 80.1 a.u.
Under “mean fluorescence intensity”, `2'F-ANA at 2 4 6 7 9 10 14 15` is recorded as 112 a.u.
`2'F-ANA at 1 2 5 6 8 9 10 11 12 14 15` — result for “mean fluorescence intensity”: 47.9 a.u.
Under “mean fluorescence intensity”, `2'F-ANA at 1 4 6 8 9 14 15` is recorded as 51.6 a.u.
For `2'F-ANA at 2 3 10 11 15`, “mean fluorescence intensity” read 379 a.u.
For `2'F-ANA at 2 3 8 12 13 14 15`, “mean fluorescence intensity” read 522 a.u.
For `2'F-ANA at 1 6 9 11 12 14`, “mean fluorescence intensity” read 58.6 a.u.
`2'F-ANA at 1 2 3 5 6 8 9 10 11 12`: “mean fluorescence intensity” 51 a.u.
`2'F-ANA at 1 3 4 5 7 8 10 11 13 14 15`: “mean fluorescence intensity” 52.9 a.u.
For `2'F-ANA at 1 4 6 9`, “mean fluorescence intensity” read 163 a.u.
`2'F-ANA at 1 5 7 8 10 12 13 14` — result for “mean fluorescence intensity”: 46.2 a.u.
`2'F-ANA at 1 2 3 8 9 10 11 12` — result for “mean fluorescence intensity”: 97.9 a.u.
`2'F-ANA at 2 4 6 9 11 12 13 15`: “mean fluorescence intensity” 254 a.u.

Series 5 — technique: RNA Bind-n-Seq; form: RNA; matrix: in vitro; concentration: 365 nM; relative to: no-protein control; reading: higher = stronger binding
Target: RNA binding protein fox-1 homolog 2, RRM domain, GST-SBP tag (RBFOX2, Homo sapiens, UniProt O43251-10, residues 100-194)
Notes: natural RNA segment, single round, ends assumed
Construct (chain): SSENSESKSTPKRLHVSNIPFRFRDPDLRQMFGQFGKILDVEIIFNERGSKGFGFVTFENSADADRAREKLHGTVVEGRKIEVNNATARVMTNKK
`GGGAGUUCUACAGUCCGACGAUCUAUAAAAGUGCGGUGUAACCAUAGACCAUAGCUGCAGGAUAACCAAUUAGUCACUCUUAGAGUAAUCUGUAUUCAGAACAAUUCAAACAAGCUGGAGGAACAGCUCCUGAUGGAAUUCUCGGGUGCCAA`: “RBNS enrichment (R)” 0.474.
For `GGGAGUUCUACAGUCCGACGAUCUUUUUGUAGUUGUGGCAUCUUGUUGACAUCGAAUAUGACUUUGAUAAUAAAUACCGGUUCCUGAAAACGGCCUGCUUGUGUGUGCUGUGUGGGCAACCACGCGAGGUGUGUGGAAUUCUCGGGUGCCAA`, “RBNS enrichment (R)” read 0.997.
For `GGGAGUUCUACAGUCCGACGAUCCAGGGUCUAAAGAGAACAAGAGGUGCUAGCUCUUACCAAAACAGAUGGUAGAGAGAGUUGCUGGCUAUUUAAAAAGCUCUUUCAUCUUUUAAUUCACCUCUUCUUUUCACUGGAAUUCUCGGGUGCCAA`, “RBNS enrichment (R)” read 0.462.
`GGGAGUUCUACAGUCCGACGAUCUGGUUUCUCUGAAAAAACGAGGUAAUUCCCUGAGCCCAACCCUGAUCCUCAAGGACCUGUAAUUGUGUGGUAUUUAAAAUUAAAAUAACAUUAUUUUUAUUUUGACUUUUUGGAAUUCUCGGGUGCCAA` — result for “RBNS enrichment (R)”: 0.463.
For `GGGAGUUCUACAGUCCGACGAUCUGUUUGCUUAAACUGUGAUUUUUUUUCCCCUCCCUAAUUUCAGGGGUGAGAUUGACUUUGGGAAGACAGAUUAGUUCUUUGUCAGGCCAACAAGUGAUGGAGUGCGGGAGUGGAAUUCUCGGGUGCCAA`, “RBNS enrichment (R)” read 0.657.
For `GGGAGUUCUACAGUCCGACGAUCAACCUGGAUGGGGAAAAGCAUUUCCCAUAGCACUCCAUGUAAUAUGAGUGCUCUGUGAGAUGUUCAUCAGUGUUUUAUAGAAAUGGUGUUGCUGGGAAACCAAGUUUGCAUGGAAUUCUCGGGUGCCAA`, “RBNS enrichment (R)” read 3.31.
`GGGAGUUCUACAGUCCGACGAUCUGCUACUGCUCAUGAUUCAAAUGUCUACCACAAUCUGAAUUGGGAUGUUGACAUUUUGUGGUUAUUUUCAGAUUAAUAGUAAUUGUUAUGCUCUUAAAAGCACUCAUAGAUGGAAUUCUCGGGUGCCAA` — result for “RBNS enrichment (R)”: 0.855.
`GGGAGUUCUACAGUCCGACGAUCUUUACUGUUAUCCUAUUUAGAUGGCCAUGAAGAGGAUGCUGUGAAAUUCCCAACAAACAUUGAUGCUGACAGUCAUGCAGUCUGGGAGUGGGGAAGUGAUCUUUUGUUCCUGGAAUUCUCGGGUGCCAA` — result for “RBNS enrichment (R)”: 0.341.
`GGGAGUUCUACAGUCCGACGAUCUGCAGAUGUGAAAGCUAAGACCAUGAACCAUGUGAGAUUCCAAACCAAAUAAGCUUGCUGCCAUGGUCUAGGGUGAGGGUGCUGUCCUGUGCAAAUGUUAAGUUGGAUAUUGGAAUUCUCGGGUGCCAA`: “RBNS enrichment (R)” 1.
For `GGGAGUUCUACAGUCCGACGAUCGAUAGACAAUUUCAGCUAGCCACAUAUUGUAUGUAUGAGAUUCAUAAAGACUUUCAAUCAUUUCAUUUUCAGACAACUGAAAUUUUGUUUAGUAUGUGAAUUCUUUUUUUUGGAAUUCUCGGGUGCCAA`, “RBNS enrichment (R)” read 0.484.
Under “RBNS enrichment (R)”, `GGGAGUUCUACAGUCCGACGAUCGGGUGGGUGGGGGCUGACCCCAGCUUCCAGGGGACUGUCACUGUGGACGCCAAAAUGGCAUAACUGAGAUAAGGUGAAUAAGUGACAAAUAAAGCCAGUUUUUUACAAGGUGGAAUUCUCGGGUGCCAA` is recorded as 0.239.
Under “RBNS enrichment (R)”, `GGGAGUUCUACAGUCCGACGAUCGCUGAAGCUGUAGUUAUUAUGGGCCACUUACAUGAGGCUGAGAAGUACGUGCCGGAGCUCACACACUGCCUGUUGCGGUUCUCUUAACAUCAGUUAUCACAGCUGCCUGUUGGAAUUCUCGGGUGCCAA` is recorded as 0.674.

Repeated from above (series 2):
`K5G` — result for “normalised enrichment score”: 0.4.
Under “normalised enrichment score”, `N11M` is recorded as 1.08.
For `L7N`, “normalised enrichment score” read -0.0104.
`E8S`: “normalised enrichment score” 0.0775.
For `L9C`, “normalised enrichment score” read 0.919.
Under “normalised enrichment score”, `R2T` is recorded as 0.64.
